Published values pooled from the literature.
Lines come from different studies, so protocols differ. Several values in a cell are separate wells, animals, samples, runs or records. Numbers after ± are the reported error.
Cell line: HEK293

| SMILES | assay | test system | setting | scale | measurement | value |
| --- | --- | --- | --- | --- | --- | --- |
| CN1CCC(NCc2cccc(-c3ccc(S(=O)(=O)NCc4ccccc4)cc3)c2)CC1 | MTT |  |  | relative to: CC50 over IC50 | selectivity index | 54.5 |
| Clc1cccc(-c2c[nH]c3ncnc(N4CCOCC4)c23)c1 | reporter gene, 8xGTIIC luciferase |  | 10 µM, 48 h | relative to: DMSO | YAP/TAZ-TEAD reporter activity | increased |
| C/C=C(/C)C(=O)O[C@H]1C(C)=C2[C@H]([C@@H]1OC(=O)CCCCCCC)[C@@](C)(OC(C)=O)C[C@H](OC(=O)CCC)[C@@]1(O)[C@H]2OC(=O)[C@@]1(C)O | western blot |  | 3 µM, 6 h, unit not given | relative to: mock | BiP protein level | 2.04 and 2.27 and 1.68 and 1.61 and 1.73 and 1.47 |
| COc1cc2c(OC(C)=O)c3c(c(-c4ccc5c(c4)OCO5)c2cc1OC)C(=O)N(CCO)C3=O | endosomal acidification |  | 4 h |  | IC50 | > 10000 nM |
| Fc1cccc(-c2c[nH]c3ncnc(N4CCOCC4)c23)c1 | reporter gene, 8xGTIIC luciferase |  | 10 µM, 48 h | relative to: DMSO | YAP/TAZ-TEAD reporter activity | increased |
| COc1cc2c(OCCCN3CCOCC3)c3c(c(-c4ccc5c(c4)OCO5)c2cc1OC)C(=O)OC3 | endosomal acidification |  |  |  | IC50 | 74.3 ± 23.9 nM |
| COc1c(C)c2c(c(O)c1C/C=C(\C)CCC(=O)O)C(=O)OC2 | cell proliferation | kidney cancer |  |  | IC50 | 347 nM |
| CN1C(=O)c2sccc2N(C)c2nc(Nc3ccc(S(N)(=O)=O)cc3)ncc21 | Western blot, measured: MOB1 phospho-Thr35 |  | 10 µM, 4 h, added: H2O2 50 µM for 2 h | relative to: DMSO | phosphorylated MOB1 level | decreased |
| COc1cc2c(O)c3c(c(-c4ccc5c(c4)OCO5)c2cc1OC)C(=O)OC3 | FITC-dextran |  | 1 to 7 µM, 4 h |  | endosomal pH | 7 |
| OC1CCN(c2ncnc3[nH]cc(-c4cccc(Cl)c4)c23)CC1 | reporter gene, 8xGTIIC luciferase |  | 10 µM, 48 h | relative to: DMSO | YAP/TAZ-TEAD reporter activity | increased |
| CCOC(=O)CN1CCN(CCCOc2c3c(c(-c4ccc5c(c4)OCO5)c4cc(OC)c(OC)cc24)C(=O)OC3)CC1 | endosomal acidification |  |  |  | IC50 | 172 ± 40.6 nM |
| Clc1cccc(-c2c[nH]c3nccc(N4CCOCC4)c23)c1 | Western blot, measured: MOB1 phospho-Thr35 |  | 10 µM, 4 h, added: H2O2 50 µM for 2 h | relative to: DMSO | phosphorylated MOB1 level | decreased |
| Cc1cc(NCCc2ccccc2)nc(N=C(N)Nc2ccc(Cl)cc2)n1 | MTT |  |  | relative to: CC50 over IC50 | selectivity index | 106 |
| CC(=O)NC1CCN(c2ncnc3[nH]cc(-c4cccc(Cl)c4)c23)CC1 | Western blot, measured: MOB1 phospho-Thr35 |  | 10 µM, 4 h, added: H2O2 50 µM for 2 h | relative to: DMSO | phosphorylated MOB1 level | decreased |
| CC(C)(C)C(O)C(Oc1ccc(-c2ccccc2)cc1)n1cncn1 (stereo not drawn) | MTT |  |  | relative to: CC50 over IC50 | selectivity index | 11.6 |
| C[C@H]1CCC/C=C/[C@@H]2C[C@H](O)C[C@H]2[C@H](O)/C=C/C(=O)O1 | protein secretion |  | concentration not given, unit not given | relative to: mock | secreted Gaussia luciferase | 0.0413 |
| C[C@@H](c1cc(Cl)cc(Cl)c1)N(C)c1ncc2c(N)nc(N)nc2n1 | MTT |  |  | relative to: CC50 over IC50 | selectivity index | 3.82 |
| COc1cc2c(O)c3c(c(-c4ccc5c(c4)OCO5)c2cc1OC)C(=O)N(/N=C/c1c(F)c(F)c(F)c(F)c1F)C3 | endosomal acidification |  | 4 h |  | IC50 | > 10000 nM |

Some of these lines once more:
| SMILES | assay | test system | setting | scale | measurement | value |
| --- | --- | --- | --- | --- | --- | --- |
| OC1CCN(c2ncnc3[nH]cc(-c4cccc(Cl)c4)c23)CC1 | reporter gene, 8xGTIIC luciferase |  | 10 µM, 48 h | relative to: DMSO | YAP/TAZ-TEAD reporter activity | increased |
| CCOC(=O)CN1CCN(CCCOc2c3c(c(-c4ccc5c(c4)OCO5)c4cc(OC)c(OC)cc24)C(=O)OC3)CC1 | endosomal acidification |  |  |  | IC50 | 172 ± 40.6 nM |
